Experimental data gathered from unrelated publications.
Lines come from different studies, so protocols differ. pIC50: −log10 of the molar value.
CYP3A4: Cytochrome P450 3A4 (CYP3A4, Homo sapiens, UniProt P08684)
UniProt P08684, sequence (whole entry, unmodified, looked up): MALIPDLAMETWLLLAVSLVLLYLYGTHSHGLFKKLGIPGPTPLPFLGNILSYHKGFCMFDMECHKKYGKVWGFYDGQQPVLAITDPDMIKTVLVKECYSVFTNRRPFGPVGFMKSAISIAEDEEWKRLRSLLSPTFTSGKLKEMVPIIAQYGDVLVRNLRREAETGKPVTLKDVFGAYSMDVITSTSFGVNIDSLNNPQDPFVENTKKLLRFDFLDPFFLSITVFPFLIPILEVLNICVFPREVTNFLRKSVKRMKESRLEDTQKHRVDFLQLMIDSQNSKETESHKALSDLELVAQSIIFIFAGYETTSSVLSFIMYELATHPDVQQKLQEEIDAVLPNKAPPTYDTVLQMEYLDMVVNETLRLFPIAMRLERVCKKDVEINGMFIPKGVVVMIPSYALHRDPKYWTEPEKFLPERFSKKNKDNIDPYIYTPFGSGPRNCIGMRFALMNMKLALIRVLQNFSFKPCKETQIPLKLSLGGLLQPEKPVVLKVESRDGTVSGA
CYP3A4 S18F: Cytochrome P450 3A4 (CYP3A4, Homo sapiens, UniProt P08684, S18F)

SMILES	target	test	test system	setting	quantity	result
C#C[C@]1(O)CC[C@H]2[C@@H]3CCC4=CC(=O)CC[C@@H]4[C@H]3CC[C@@]21CC	CYP3A4		human, plasma	oral, dose not given, oral contraceptive, day 21, added: EDP-305 2.5 mg	AUC(0-t)	74.8 ng·h/mL
CC(C)c1c(C(=O)Nc2ccccc2)c(-c2ccccc2)c(-c2ccc(F)cc2)n1CC[C@@H]1C[C@@H](O)CC(=O)O1	CYP3A4 S18F	substrate, HPLC	nanodiscs with rat CPR	pH 7.4, 37 °C, 2 substrate molecules bound	product formation rate	41 min⁻¹
CC(=O)[C@H]1CC[C@H]2[C@@H]3CCC4=CC(=O)CC[C@]4(C)[C@H]3CC[C@]12C	CYP3A4 S18F	substrate, UV-Vis spin-shift titration	nanodiscs	two substrates bound	high-spin fraction	37%
Cc1noc(C)c1Cn1cc(N2C(=O)N(Cc3cccc(O)c3)C(C)(C)C2=O)cn1	CYP3A4	enzyme activity, inhibitor, fluorescence	Sf9	10 µM	inhibition	26%
CC1=N[C@]2(C(=O)CO)[C@@H](C[C@H]3[C@@H]4C[C@@H](O)C5=CC(=O)C=C[C@]5(C)[C@H]4[C@@H](O)C[C@@]32C)O1	CYP3A4	enzyme activity, inhibitor	pooled human liver microsomes	30 min preincubation with NADPH, added: testosterone substrate	pIC50	< 4.30
Cc1noc(C)c1Cn1cc(N2C(=O)CN(Cc3cccc(O)c3)C2=O)cn1	CYP3A4	enzyme activity, inhibitor, fluorescence	Sf9	10 µM	inhibition	1%
N#C[C@H](C[C@@H]1CCCNC1=O)NC(=O)[C@H](CC1CC1)NC(=O)c1cc2cccc(Cl)c2[nH]1	CYP3A4	time-dependent inhibitor	human liver microsomes	added: midazolam 1'-hydroxylation	kinact	0.00103 s⁻¹
C#C[C@]1(O)CC[C@H]2[C@@H]3CCc4cc(O)ccc4[C@H]3CC[C@@]21C	CYP3A4		human, plasma	oral, dose not given, day 21, geometric LS mean, added: norgestimate, EDP-305 2.5 mg	AUC(0-t)	1.35 ng·h/mL
COc1cc(Sc2c(C3CCCCC3)[nH]c3ccccc23)cc(OC)c1OC	CYP3A4	enzyme activity, inhibitor, fluorescence		1 µM, 30 min, pH 7.4	inhibition	57%
NC(=O)N1c2ccccc2C=Cc2ccccc21	CYP3A4 S18F	substrate	nanodiscs with CPR	two substrates bound	NADPH oxidation rate	124 nmol/nmol P450/min
COc1cc2c(Oc3ccc4[nH]c(C)cc4c3F)ccnc2cc1OCC1(N)CC1	CYP3A4	substrate		1 µM, 60 min, pH 7.4, 37 °C	intrinsic clearance	0.32 µL/min/pmol
CCCCc1oc2ccc(NS(C)(=O)=O)cc2c1C(=O)c1ccc(OCCCN(CCCC)CCCC)cc1	CYP3A4 S18F	substrate, HPLC	nanodiscs with rat CPR	pH 7.4, 37 °C, 2 substrate molecules bound	product formation rate	8.2 min⁻¹
COc1cc(O)c2c(c1)C(=O)c1cc(C)cc(O)c1C2=O	CYP3A4	enzyme activity, inhibitor	human, liver microsomes	with preincubation	kinact	0.000817 s⁻¹
